Assay results from different studies.
Parts stem from different laboratories: compare values within a part only.
Sequence of UniProt Q9UKI8 (whole entry, looked up): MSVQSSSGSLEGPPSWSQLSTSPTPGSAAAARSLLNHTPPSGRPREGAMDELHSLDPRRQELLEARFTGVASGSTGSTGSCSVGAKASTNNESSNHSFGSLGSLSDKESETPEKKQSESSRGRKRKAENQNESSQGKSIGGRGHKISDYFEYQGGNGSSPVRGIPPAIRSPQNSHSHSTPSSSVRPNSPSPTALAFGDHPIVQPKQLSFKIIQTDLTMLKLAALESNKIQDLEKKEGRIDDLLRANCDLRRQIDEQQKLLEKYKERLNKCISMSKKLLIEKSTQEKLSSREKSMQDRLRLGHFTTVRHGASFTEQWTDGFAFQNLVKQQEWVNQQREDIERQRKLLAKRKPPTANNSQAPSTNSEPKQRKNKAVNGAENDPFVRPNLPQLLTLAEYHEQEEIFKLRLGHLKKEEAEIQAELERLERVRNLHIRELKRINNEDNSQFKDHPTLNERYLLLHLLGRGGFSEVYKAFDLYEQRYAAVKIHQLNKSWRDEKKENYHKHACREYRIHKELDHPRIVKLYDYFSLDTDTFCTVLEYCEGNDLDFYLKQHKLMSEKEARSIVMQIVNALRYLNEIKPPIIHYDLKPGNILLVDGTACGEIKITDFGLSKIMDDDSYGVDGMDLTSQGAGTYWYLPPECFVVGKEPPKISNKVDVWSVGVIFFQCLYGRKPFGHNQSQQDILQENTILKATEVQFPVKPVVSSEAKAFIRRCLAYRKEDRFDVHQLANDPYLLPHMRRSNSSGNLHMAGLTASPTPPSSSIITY
Sequence of UniProt Q9BYT3 (whole entry, looked up): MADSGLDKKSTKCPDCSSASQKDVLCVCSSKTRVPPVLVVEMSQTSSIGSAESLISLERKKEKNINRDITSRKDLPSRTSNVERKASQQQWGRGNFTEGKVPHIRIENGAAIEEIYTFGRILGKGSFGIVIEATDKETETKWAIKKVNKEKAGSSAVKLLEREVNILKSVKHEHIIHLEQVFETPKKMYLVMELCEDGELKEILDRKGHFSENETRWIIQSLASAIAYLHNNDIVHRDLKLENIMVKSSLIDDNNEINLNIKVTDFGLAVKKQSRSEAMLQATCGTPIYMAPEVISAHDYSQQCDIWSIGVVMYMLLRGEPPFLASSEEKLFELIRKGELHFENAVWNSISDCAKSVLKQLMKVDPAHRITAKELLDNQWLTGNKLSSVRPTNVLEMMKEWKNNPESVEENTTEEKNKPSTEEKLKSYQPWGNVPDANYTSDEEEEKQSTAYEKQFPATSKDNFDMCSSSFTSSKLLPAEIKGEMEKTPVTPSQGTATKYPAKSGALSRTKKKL
Sequence of UniProt P27361 (whole entry, looked up): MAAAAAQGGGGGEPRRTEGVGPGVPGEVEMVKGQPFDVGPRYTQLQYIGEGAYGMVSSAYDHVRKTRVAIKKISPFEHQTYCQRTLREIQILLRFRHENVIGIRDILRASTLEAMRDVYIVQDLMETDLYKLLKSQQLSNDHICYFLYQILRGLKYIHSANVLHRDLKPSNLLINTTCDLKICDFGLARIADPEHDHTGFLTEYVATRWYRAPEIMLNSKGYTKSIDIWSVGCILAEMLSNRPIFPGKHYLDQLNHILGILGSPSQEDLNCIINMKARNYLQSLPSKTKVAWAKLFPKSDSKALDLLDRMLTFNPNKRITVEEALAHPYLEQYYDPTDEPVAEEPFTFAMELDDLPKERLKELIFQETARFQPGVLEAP
Sequence of UniProt Q02779 (whole entry, looked up): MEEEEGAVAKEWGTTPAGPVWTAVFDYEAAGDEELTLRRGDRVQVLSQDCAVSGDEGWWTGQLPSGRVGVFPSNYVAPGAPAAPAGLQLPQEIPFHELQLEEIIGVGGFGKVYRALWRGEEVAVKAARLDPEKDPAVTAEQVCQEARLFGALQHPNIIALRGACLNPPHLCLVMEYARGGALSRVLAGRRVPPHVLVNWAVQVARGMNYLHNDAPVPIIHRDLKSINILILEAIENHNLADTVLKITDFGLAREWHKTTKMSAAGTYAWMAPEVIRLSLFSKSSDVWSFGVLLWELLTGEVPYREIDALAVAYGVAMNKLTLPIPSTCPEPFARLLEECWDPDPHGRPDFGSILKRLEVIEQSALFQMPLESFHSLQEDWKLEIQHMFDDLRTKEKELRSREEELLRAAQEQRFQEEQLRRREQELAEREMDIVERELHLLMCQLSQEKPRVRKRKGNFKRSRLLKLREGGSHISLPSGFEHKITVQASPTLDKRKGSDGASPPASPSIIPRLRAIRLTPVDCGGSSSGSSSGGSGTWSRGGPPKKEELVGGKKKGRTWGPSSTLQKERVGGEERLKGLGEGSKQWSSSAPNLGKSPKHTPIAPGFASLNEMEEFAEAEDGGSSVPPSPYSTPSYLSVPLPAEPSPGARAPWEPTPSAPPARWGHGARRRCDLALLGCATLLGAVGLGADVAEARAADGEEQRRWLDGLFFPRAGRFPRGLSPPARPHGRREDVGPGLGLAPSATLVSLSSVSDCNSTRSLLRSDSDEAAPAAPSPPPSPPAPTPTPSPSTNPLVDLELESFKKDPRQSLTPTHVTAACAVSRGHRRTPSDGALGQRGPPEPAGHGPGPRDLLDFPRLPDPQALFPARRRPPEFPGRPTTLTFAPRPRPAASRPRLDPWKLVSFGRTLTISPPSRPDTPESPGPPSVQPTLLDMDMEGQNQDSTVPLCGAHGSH
Sequence of UniProt P53779 (whole entry, looked up): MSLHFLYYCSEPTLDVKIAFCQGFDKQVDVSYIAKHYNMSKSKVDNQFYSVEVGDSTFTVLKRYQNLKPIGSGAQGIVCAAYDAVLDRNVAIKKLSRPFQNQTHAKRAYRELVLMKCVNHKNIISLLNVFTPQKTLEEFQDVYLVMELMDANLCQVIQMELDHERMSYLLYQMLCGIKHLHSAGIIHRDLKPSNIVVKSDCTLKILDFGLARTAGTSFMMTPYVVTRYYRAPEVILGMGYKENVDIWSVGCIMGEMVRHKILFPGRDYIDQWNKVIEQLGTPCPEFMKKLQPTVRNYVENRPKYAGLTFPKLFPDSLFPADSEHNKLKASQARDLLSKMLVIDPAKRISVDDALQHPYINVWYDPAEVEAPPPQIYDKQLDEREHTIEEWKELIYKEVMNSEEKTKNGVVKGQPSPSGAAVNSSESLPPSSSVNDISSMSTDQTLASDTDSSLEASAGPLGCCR

Sample 1
Species: human
Matrix: microsomes or S9
Tested at: 2 µM
Time: 0.5 h
Measurement: remaining compound
COc1cc(CNCCN(C)C)c(Cl)cc1OCc1ccccc1: 45.2%
CCOc1cccc(CNCc2cccnc2)c1OCc1ccc(C)cc1: 0.578%
O=C(Nc1cc(Oc2ncccn2)c(Cl)cc1F)Oc1ccccc1: 37.8%
N=C(NS(=O)(=O)c1ccccc1)c1ccccc1: 82.7%
CCC[C@H](CCO)n1c(C#N)cc(Cl)c1Br: 48.6%
CC(=O)N[C@@H]1CN(C(=O)c2nc3cc(C)ccn3c2F)C[C@H]1c1ccc(C)o1: 82.6%
Nc1c(C(=O)c2ccc[nH]2)cnn1-c1ccc(F)cc1: 12.8%
Cc1ccc(-c2n[nH]c3c2C(c2cccnc2)N(c2ccc(Cl)cc2)C3=O)cc1 (stereo not shown): 28.4%
c1ccc2c(c1)Cc1cc(-n3nnc4ccccc43)ccc1-2: 11%
COC(=O)CCC(=O)Nc1sc(C)c(C)c1C(N)=O: > 99.9%

Sample 2
Cell line: A-375
Tested at: 100 µM
Time: 36 h
Measurement: viability
CN(C)CCCOc1nn(Cc2ccccc2)c2ccccc12: 34.1%
COC(=O)C1=CO[C@@H](O)[C@@H]2C(CO)=CC[C@H]12: 32.3%
COc1cccc(N(C)C(=S)Oc2ccc3c(c2)CCCC3)n1: 86.7%
O=C(O)c1cccnc1: 97.5%
CN(C)c1ccc(O)c2c1C[C@H]1C[C@H]3[C@H](N(C)C)C(O)=C(C(N)=O)C(=O)[C@@]3(O)C(O)=C1C2=O: 110%
COC1=CC(=O)C[C@@H](C)[C@]12Oc1c(Cl)c(OC)cc(OC)c1C2=O: 37.4%
CCN(CCO)CCCC(C)Nc1ccnc2cc(Cl)ccc12 (stereo not shown): -0.73%
CC[C@H](C)C(=O)O[C@H]1C[C@H](O)C=C2C=C[C@H](C)[C@H](CC[C@@H](O)C[C@@H](O)CC(=O)O)[C@H]21: 115%
O=C[C@H](O)[C@@H](O)[C@H](O)[C@H](O)CO: 116%
C[C@]12C=CC(=O)C=C1CC[C@@H]1[C@@H]2C(=O)C[C@@]2(C)[C@H]1CC[C@]2(O)C(=O)CO: 110%
Cc1ncc([N+](=O)[O-])n1CCO: 79.4%

Sample 3
SMILES: O=C(O)[C@H]1[C@H](Cn2nnc3ccccc3c2=O)CC[C@@H]1C(=O)c1ccc(OCCC2CCOCC2)cc1
Technique: competition with immobilised ligand
Tested at: 1 µM
Measurement: remaining binding
STK33 (Homo sapiens, UniProt Q9BYT3); cell-free assay: 98%
MAPK10 (Homo sapiens, UniProt P53779); cell-free assay: 83%
Tyrosine-protein kinase ABL1, non-phosphorylated (ABL1, Homo sapiens, UniProt P00519, F317I); binding: 86%
EPHA3 (Homo sapiens, UniProt P29320); cell-free assay: 88%
PDPK1 (Homo sapiens, UniProt O15530); cell-free assay: 74%
TLK1 (Homo sapiens, UniProt Q9UKI8); cell-free assay: 96%
Tyrosine-protein kinase ABL1, phosphorylated (ABL1, Homo sapiens, UniProt P00519, F317L); cell-free assay: 81%
Tyrosine-protein kinase ABL1, non-phosphorylated (ABL1, Homo sapiens, UniProt P00519, Q252H); cell-free assay: 98%
INSRR (Homo sapiens, UniProt P14616); cell-free assay: 81%
PIP4K2B (Homo sapiens, UniProt P78356); cell-free assay: 84%
MAPK3 (Homo sapiens, UniProt P27361); cell-free assay: 94%
STK32C (Homo sapiens, UniProt Q86UX6); cell-free assay: 89%
MAP3K10 (Homo sapiens, UniProt Q02779); cell-free assay: 82%
SRMS (Homo sapiens, UniProt Q9H3Y6); cell-free assay: 100%
RET (Homo sapiens, UniProt P07949, V804L); cell-free assay: 77%
CSK (Homo sapiens, UniProt P41240); cell-free assay: 100%
EGFR (Homo sapiens, UniProt P00533); cell-free assay: 88%

Sample 4
Target: Ribosomal protein S6 kinase alpha-3 (RPS6KA3, Homo sapiens, UniProt P51812)
Sequence of UniProt P51812 (whole entry, looked up): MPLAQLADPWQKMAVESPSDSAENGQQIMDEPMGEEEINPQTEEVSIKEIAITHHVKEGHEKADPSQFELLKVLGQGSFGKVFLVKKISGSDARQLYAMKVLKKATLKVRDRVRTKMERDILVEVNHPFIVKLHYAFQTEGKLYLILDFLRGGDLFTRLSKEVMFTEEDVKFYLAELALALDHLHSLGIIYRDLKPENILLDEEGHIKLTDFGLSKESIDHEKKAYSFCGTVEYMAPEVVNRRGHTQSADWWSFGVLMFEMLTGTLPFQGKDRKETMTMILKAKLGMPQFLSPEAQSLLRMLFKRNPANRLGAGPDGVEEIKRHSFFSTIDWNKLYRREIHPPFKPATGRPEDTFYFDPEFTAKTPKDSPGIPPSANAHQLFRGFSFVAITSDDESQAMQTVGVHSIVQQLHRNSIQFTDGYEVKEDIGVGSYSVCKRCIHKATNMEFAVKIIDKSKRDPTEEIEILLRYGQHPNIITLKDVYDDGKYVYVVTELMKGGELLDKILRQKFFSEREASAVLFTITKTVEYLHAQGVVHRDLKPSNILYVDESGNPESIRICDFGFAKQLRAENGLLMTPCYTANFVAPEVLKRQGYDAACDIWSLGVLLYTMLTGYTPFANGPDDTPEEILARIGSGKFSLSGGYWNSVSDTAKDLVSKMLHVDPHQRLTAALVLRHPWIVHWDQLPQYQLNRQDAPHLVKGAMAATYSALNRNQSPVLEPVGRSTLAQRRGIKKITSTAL
Read-out: enzyme activity
Action: inhibitor
Tested at: 0.5 µM
Relative to: control
Measurement: remaining activity
CCN(CC)CCNC(=O)c1c(C)[nH]c(/C=C2\C(=O)Nc3ccc(Cl)cc32)c1C: 15.1%
COc1cc2ncnc(Nc3ccc(O)c(Br)c3)c2cc1OC: 69.4%
Ic1cccc(CSc2nnc(-c3ccncc3)o2)c1: 96.4%
CN([C@@H](Cc1ccc(OS(=O)(=O)c2cccc3cnccc23)cc1)C(=O)N1CCN(c2ccccc2)CC1)S(=O)(=O)c1cccc2cnccc12: 98.6%
Cn1nc2c3c(cccc31)C(=O)c1ccccc1-2: 97.3%
c1ccc(-c2[nH]ncc2-c2ccnc3ccccc23)nc1: 101%
Cc1cn(-c2cc(NC(=O)c3ccc(C)c(Nc4nccc(-c5cccnc5)n4)c3)cc(C(F)(F)F)c2)cn1: 104%
O=c1cc(-c2cccc3c2Sc2ccccc2S3)oc(N2CCOCC2)c1: 102%
N#Cc1c(NC(=O)c2cccc3ccccc23)sc2c1CCCC2: 99%
CCN(CC)C(=O)c1ccc(Nc2nc(OCC3CCCCC3)c3[nH]cnc3n2)cc1: 17.6%
O=C1c2ccccc2-c2n[nH]c3cccc1c23: 75.3%

A few entries again (sample 1):
CCOc1cccc(CNCc2cccnc2)c1OCc1ccc(C)cc1: 0.578%
COc1cc(CNCCN(C)C)c(Cl)cc1OCc1ccccc1: 45.2%
COC(=O)CCC(=O)Nc1sc(C)c(C)c1C(N)=O: > 99.9%
O=C(Nc1cc(Oc2ncccn2)c(Cl)cc1F)Oc1ccccc1: 37.8%
CCC[C@H](CCO)n1c(C#N)cc(Cl)c1Br: 48.6%
N=C(NS(=O)(=O)c1ccccc1)c1ccccc1: 82.7%
CC(=O)N[C@@H]1CN(C(=O)c2nc3cc(C)ccn3c2F)C[C@H]1c1ccc(C)o1: 82.6%
